Published values from different studies.
Compare with care: the assays were run in different laboratories. “And” joins repeats or separate records; there may be more than shown. ± marks the error that the study gave. Where no end group is shown, it is not given here.
APP: Amyloid-beta precursor protein (APP, Homo sapiens, UniProt P05067)
CASP4: Caspase-4 (CASP4, Homo sapiens, UniProt P49662)
Protein S100-B: Protein S100-B (Homo sapiens, UniProt P04271)
B1: side-chain stapled; chain AACSFRINSLCG (also: sidechain bridge or staple (positions not given here))

Molecule	target	test	test system	conditions	how to read	endpoint	result
CNLM	Protein farnesyltransferase (Rattus norvegicus, UniProt Q02293+Q04631)	substrate, stopped-flow fluorescence	peptide	pH 7.8, 25 °C, single turnover	–	farnesylation rate constant	3.1 ± 0.3 s⁻¹
Cc1cc2nc[nH]c2cc1C	cobT (Desulfitobacterium hafniense, UniProt Q24VN9)	alpha-ribazole phosphate formation, substrate	–	250 µM, 30 min, pH 7.5, 30 °C, added: 2 mM NaMN	–	product formed	167 ± 2.7 µM
Nc1nc2c(ncn2[C@@H]2O[C@@H]3COP(=O)(O)O[C@H]3[C@H]2O)c(=O)[nH]1	Cyclic nucleotide-gated channel alpha-2 (Cnga2, Rattus norvegicus, UniProt Q00195, E583M)	ion current, agonist, inside-out patch clamp	–	E583M channel, +50 mV	baseline: cAMP at saturation	relative maximal current	0.4 ± 0.1
O=C(N1CCCC[C@@H]1Cc1ccccc1)n1ncc(C(O)(c2ccc(F)cc2)c2ccc(F)cc2)n1	Diacylglycerol lipase-alpha (Mus musculus, UniProt Q6WQJ1)	enzyme activity, inhibitor	–	–	–	kinact	0.00367 s⁻¹
CC[C@H](C)[C@H](NC(=O)[C@@H](NC(=O)[C@@H](N)C(C)C)C(C)C)C(=O)NC(C)(C)C(N)=O	APP	amyloid aggregation, inhibitor, fluorescence	–	4 µM, 24 h	–	inhibition	42%
CC(C)[C@H](NC(=O)[C@H](Cc1c[nH]c2ccccc12)NC(=O)[C@@H]1CCCN1C(=O)[C@@H]1CCCN1C(=O)[C@H](Cc1ccccc1)NC(=O)[C@H](CO)NC(=O)CN)C(=O)N[C@@H](CCC(N)=O)C(=O)O	Disks large homolog 4, PDZ3 domain (Homo sapiens, UniProt P78352)	binding, surface plasmon resonance	–	pH 7.5, 25 °C	–	kon	1000 M⁻¹ s⁻¹
Cc1c(Nc2ncccc2C(=O)O)cccc1C(F)(F)F	CASP4	–	–	33 µM, added: LEHD substrate	baseline: solvent control	remaining activity	17.9%
COC(=O)CCC(C(=O)C=Cc1cc(F)c(O)c(F)c1)C(=O)C=Cc1cc(F)c(O)c(F)c1 (centres unmarked)	APP	Aβ aggregation, SDS-PAGE western blot, refers to: Aβ1-42 75-200 kDa band	–	30 µM, 24 h, 37 °C, added: Aβ1-42 10 µM	baseline: DMSO	band density	161 ± 30%
ASTDTLQAETDQLEDEKYALQTEIANLLKEKEKLGAP	Transcription factor Jun (Homo sapiens, UniProt P05412, S292Y)	isothermal titration calorimetry	peptide	concentration not given, pH 7, 20 °C	–	binding stoichiometry	1.1 ± 0.01
Cc1ccccc1-c1ccc(C(=O)N2CC3(C)CC2CC(C)(C)C3)cc1 (centres unmarked)	Vasopressin V1a receptor (Mus musculus, UniProt Q62463)	blocker	CD-1 mouse, cortex	subcutaneous, 3 mg/kg, 60 min	–	radiotracer uptake reduction	26%
BODIPY FL GTP	Ras-related protein Rab-7a (Canis lupus familiaris, UniProt P18067)	nucleotide dissociation	–	added: BODIPY FL nucleotide 500 nM chased by GTP 1 mM	–	koff	0.0066 s⁻¹
O=[N+]([O-])c1ccc(CSc2ncnc3c2ncn3[C@@H]2O[C@H](CO)[C@@H](O)[C@H]2O)cc1	Equilibrative nucleoside transporter 2 (Homo sapiens, UniProt Q14542)	thymidine uptake, inhibitor	A549	pH 7.4, minor biphasic component, added: 3H-thymidine	–	IC50	0.206 ± 0.028 µM
CC(=O)N[C@@H](CCC(=O)O)C(=O)N[C@H](C(=O)N[C@@H](CC(C)C)C(=O)N[C@H](C(=O)N[C@@H](CCCNC(=N)N)C(=O)N1CCC[C@H]1C(=O)N[C@@H](CCCCN)C(=O)N1CCC[C@H]1C(=O)N[C@@H](CC(C)C)C(=O)N[C@@H](CC(C)C)C(=O)N[C@@H](CC(C)C)C(=O)N[C@@H](CCCCN)C(=O)N[C@@H](CC(C)C)C(=O)N[C@@H](CC(C)C)C(=O)N[C@@H](CCCCN)C(=O)N[C@@H](CO)C(=O)N[C@H](C(=O)NCC(=O)N[C@@H](C)C(=O)N[C@@H](Cc1ccc(O)cc1)C(N)=O)C(C)C)C(C)C)[C@@H](C)O	Protein S100-B	binding, NMR line shape, Kd from ITC	–	35 °C, low salt	–	koff	140 ± 30 s⁻¹
CO[C@H]1O[C@H](COS(=O)(=O)O)[C@@H](O[C@@H]2O[C@@H](C(=O)O)[C@@H](O[C@H]3O[C@H](COS(=O)(=O)O)[C@@H](O[C@@H]4O[C@H](C(=O)O)[C@@H](O[C@H]5O[C@H](COS(=O)(=O)O)[C@@H](O)[C@H](O)[C@H]5NS(=O)(=O)O)[C@H](O)[C@H]4O)[C@H](OS(=O)(=O)O)[C@H]3NS(=O)(=O)O)[C@H](O)[C@H]2OS(=O)(=O)O)[C@H](O)[C@H]1NS(=O)(=O)O	Antithrombin-III (SERPINC1, Homo sapiens, UniProt P01008)	differential scanning fluorimetry	–	62.5 µg, antithrombin 1 mg/mL	–	Tm	65.8 °C
B1	Prolyl endopeptidase (PREP, Homo sapiens, UniProt P48147)	enzyme activity	–	200 µM, 37 °C	baseline: FAPα over PREP	selectivity ratio	6 fold
O=S(=O)(O)c1cc(N=C=S)ccc1CCc1ccc(N=C=S)cc1S(=O)(=O)O	SLC4A1 (Homo sapiens, UniProt P02730)	chloride exchange	human red blood cells	pH 9.0, 0 °C, pH-induced inward chloride gradient, added: external chloride 60 mM	–	ID50	0.55 µM and 0.34 µM and 0.32 µM and 0.4 µM and 0.83 µM

Molecule	target	test	test system	conditions	how to read	endpoint	result
CC[C@H](C)[C@H](NC(=O)[C@@H](NC(=O)[C@H](N)C(C)C)C(C)C)C(=O)N[C@@H](C)C(N)=O	APP	amyloid aggregation, inhibitor, fluorescence	–	2 µM, 24 h	–	inhibition	64.7%
Ac-PARAC-NH2 (N-acetyl, C-amide)	Fibroblast growth factor 2, with pentraxin 3 (Homo sapiens, UniProt P09038)	binding to PTX3, competitor, surface plasmon resonance	peptide	added: 150 nM free FGF2	–	ID50	1000 µM
Cc1ccc(C(=O)C2=C(O)C(=O)N(CC(C)O)C2c2ccc(C(C)C)cc2)cc1 (centres unmarked)	Protein S100-A10, with annexin A2 (Homo sapiens, UniProt P60903)	S100A10-annexin A2 binding, inhibitor, coimmunoprecipitation	MDA-MB-231 cell lysate	50 µM	–	complex loss	~70%
COc1cc(C=O)cc(OC)c1O	UGT (rat)	4-MU glucuronidation, inhibitor	rat liver microsomes	–	–	lowest inhibitory concentration	≥ 0.1 µM
O=C(O)CCC(=O)c1ccc(-c2ccccc2)cc1	CASP4	–	–	33 µM, added: LEHD substrate	baseline: solvent control	remaining activity	3.71%
CC(=O)N[C@@H](C)C(=O)NCC(=O)N[C@@H](CO)C(=O)N[C@H]1CSSC[C@@H](C(=O)N[C@@H](Cc2ccc(O)cc2)C(=O)N[C@@H](CCC(=O)O)C(=O)N[C@H](C(=O)N[C@@H](CCC(=O)O)C(=O)NCC(=O)N[C@H](C(=O)NCC(=O)NCC(=O)NCC(=O)N[C@@H](CCCCNC(=O)CCCC(=O)NCCC(CCNC(C)(C)C(C)=NO)CCNC(C)(C)C(C)=NO)C(N)=O)[C@@H](C)O)[C@@H](C)O)NC(=O)[C@H](Cc2c[nH]c3ccccc23)NC(=O)[C@@H]2CSSC[C@H](NC(=O)[C@H](Cc3ccc(O)cc3)NC1=O)C(=O)N[C@@H](CO)C(=O)NCC(=O)N1CCC[C@H]1C(=O)N1CCC[C@H]1C(=O)N[C@@H](CCCNC(=N)N)C(=O)N[C@@H](Cc1ccccc1)C(=O)N[C@@H](CCC(=O)O)C(=O)N2 (some centres unmarked) [technetium-99m labelled]	Hepatocyte growth factor receptor (MET, Homo sapiens, UniProt P08581)	saturation binding	MKN-45	–	–	Bmax	772000 ± 159000 receptors per cell
COc1cc2c(Nc3ccc(Br)cc3F)ncnc2cc1OCC1CCN(C)CC1	Broad substrate specificity ATP-binding cassette transporter ABCG2 (Mus musculus, UniProt Q7TMS5)	–	MDCKII	100 nM, 60 min	baseline: parental cells	accumulation reduction	~50%
CCCCc1nc2c([nH]1)c(=O)n(C)c(=O)n2C	Androgen receptor (AR, Homo sapiens, UniProt P10275)	reporter gene, antagonist, PSA-luciferase	HeLa-A6	10 µM, 24 h, added: 5 nM dihydrotestosterone	baseline: maximal activity	remaining activity	80%
CC[S+]([O-])c1nc(-c2cccc(OCc3ccccc3)c2)cc(C(F)(F)F)n1 (centres unmarked)	Glucagon-like peptide 1 receptor (GLP1R, Homo sapiens, UniProt P43220)	cAMP accumulation, positive allosteric modulator	HEK293T overexpressing GLP1R	added: GLP-1 EC20	–	Emax	76 to 91%
CCC(CC)CSc1nc2c([nH]1)c(=S)n(C)c(=O)n2C	Glucocorticoid receptor (Nr3c1, Rattus norvegicus, UniProt P06536)	reporter gene, antagonist, MMTV-luciferase	T47D/A1-2	10 µM, 24 h, added: 5 nM dexamethasone	baseline: maximal activity	remaining activity	89%
CN(Cc1cnc2nc(N)nc(N)c2n1)c1ccc(C(=O)N[C@@H](CCC(=O)O)C(=O)O)cc1	Reduced folate transporter (SLC19A1, Homo sapiens, UniProt P41440, S313A)	substrate, radiolabelled uptake	HeLa R5 transfected	0.5 µM, 2 min, 37 °C	baseline: wild-type hRFC	transport activity	~17%
Oc1cc2c(cc1O)CN(C(=S)NCCc1ccc(Cl)cc1)CCC2	Transient receptor potential cation channel subfamily V member 1 (TRPV1, Homo sapiens, UniProt Q8NER1)	calcium uptake, antagonist	MCF7	added: 2 nM resiniferatoxin	–	Emax	104%
O=C(O)CCc1ccc(O)c(CN(CCN(CC(=O)O)Cc2cc(CCC(=O)NCCCCCC(=O)NCCCC[C@H](NC(=O)N[C@@H](CCC(=O)O)C(=O)O)C(=O)O)ccc2O)CC(=O)O)c1	Glutamate carboxypeptidase 2 (FOLH1, Homo sapiens, UniProt Q04609)	68Ga-labelled	LNCaP	30 nM, 45 min, 37 °C	baseline: bound	internalized fraction	17.9 ± 0.7%
Cc1oncc1C(=O)Nc1ccc(C(F)(F)F)cc1	CASP4	–	–	33 µM, added: LEHD substrate	baseline: solvent control	remaining activity	16.3%
Ac-YESTNPFTAK-NH2 (N-acetyl, C-amide)	EHD1 EH domain, mouse	ITC	peptide	pH 7.0, 20 °C, 0 mM KCl, first titration	higher = stronger binding	Ka	7030 M⁻¹
CSCC[C@H](NC(=O)[C@H](CC(C)C)NC(=O)[C@H](CCCCN)NC(=O)[C@H](CCCCN)NC(=O)[C@H](Cc1c[nH]cn1)NC(=O)[C@H](CCCNC(=N)N)NC(=O)[C@H](CO)NC(=O)[C@@H](NC(=O)[C@H](CO)NC(=O)[C@H](CCC(N)=O)NC(=O)CNC(=O)[C@H](CCCCN)NC(=O)[C@H](CCCCN)NC(=O)[C@H](CO)NC(=O)[C@H](CCCCN)NC(=O)[C@H](CC(C)C)NC(=O)[C@H](Cc1c[nH]cn1)NC(=O)[C@H](CO)NC(=O)[C@H](Cc1ccc(O)cc1)NC(C)=O)[C@@H](C)O)C(=O)N[C@@H](Cc1ccccc1)C(=O)N[C@@H](CCCCN)C(=O)N[C@H](C(=O)N[C@@H](CCC(=O)O)C(N)=O)[C@@H](C)O	Protein S100-B	binding, NMR line shape, fixed Kd	–	35 °C, low salt	–	koff	800 ± 160 s⁻¹

Repeated from above:
Molecule	target	test	test system	conditions	how to read	endpoint	result
O=C(O)CCc1ccc(O)c(CN(CCN(CC(=O)O)Cc2cc(CCC(=O)NCCCCCC(=O)NCCCC[C@H](NC(=O)N[C@@H](CCC(=O)O)C(=O)O)C(=O)O)ccc2O)CC(=O)O)c1	Glutamate carboxypeptidase 2 (FOLH1, Homo sapiens, UniProt Q04609)	68Ga-labelled	LNCaP	30 nM, 45 min, 37 °C	baseline: bound	internalized fraction	17.9 ± 0.7%
CCCCc1nc2c([nH]1)c(=O)n(C)c(=O)n2C	Androgen receptor (AR, Homo sapiens, UniProt P10275)	reporter gene, antagonist, PSA-luciferase	HeLa-A6	10 µM, 24 h, added: 5 nM dihydrotestosterone	baseline: maximal activity	remaining activity	80%
CC(=O)N[C@@H](CCC(=O)O)C(=O)N[C@H](C(=O)N[C@@H](CC(C)C)C(=O)N[C@H](C(=O)N[C@@H](CCCNC(=N)N)C(=O)N1CCC[C@H]1C(=O)N[C@@H](CCCCN)C(=O)N1CCC[C@H]1C(=O)N[C@@H](CC(C)C)C(=O)N[C@@H](CC(C)C)C(=O)N[C@@H](CC(C)C)C(=O)N[C@@H](CCCCN)C(=O)N[C@@H](CC(C)C)C(=O)N[C@@H](CC(C)C)C(=O)N[C@@H](CCCCN)C(=O)N[C@@H](CO)C(=O)N[C@H](C(=O)NCC(=O)N[C@@H](C)C(=O)N[C@@H](Cc1ccc(O)cc1)C(N)=O)C(C)C)C(C)C)[C@@H](C)O	Protein S100-B	binding, NMR line shape, Kd from ITC	–	35 °C, low salt	–	koff	140 ± 30 s⁻¹
CC(=O)N[C@@H](C)C(=O)NCC(=O)N[C@@H](CO)C(=O)N[C@H]1CSSC[C@@H](C(=O)N[C@@H](Cc2ccc(O)cc2)C(=O)N[C@@H](CCC(=O)O)C(=O)N[C@H](C(=O)N[C@@H](CCC(=O)O)C(=O)NCC(=O)N[C@H](C(=O)NCC(=O)NCC(=O)NCC(=O)N[C@@H](CCCCNC(=O)CCCC(=O)NCCC(CCNC(C)(C)C(C)=NO)CCNC(C)(C)C(C)=NO)C(N)=O)[C@@H](C)O)[C@@H](C)O)NC(=O)[C@H](Cc2c[nH]c3ccccc23)NC(=O)[C@@H]2CSSC[C@H](NC(=O)[C@H](Cc3ccc(O)cc3)NC1=O)C(=O)N[C@@H](CO)C(=O)NCC(=O)N1CCC[C@H]1C(=O)N1CCC[C@H]1C(=O)N[C@@H](CCCNC(=N)N)C(=O)N[C@@H](Cc1ccccc1)C(=O)N[C@@H](CCC(=O)O)C(=O)N2 (some centres unmarked) [technetium-99m labelled]	Hepatocyte growth factor receptor (MET, Homo sapiens, UniProt P08581)	saturation binding	MKN-45	–	–	Bmax	772000 ± 159000 receptors per cell
